Measured values from different studies.
Lines come from different studies, so protocols differ. ± marks the error that the study gave.
Cell line: HeLa

Structure (SMILES) | test | system | conditions | scale | endpoint | value
CC(C)CCCCCCCCCCCCc1cc(O)cc(O)c1 | – | – | – | no cytotoxicity up to value | highest non-cytotoxic concentration | > 200 µM
O=c1c(Br)c2oc3c(CN(Cc4ccccn4)Cc4cnccn4)c(O)ccc3nc-2c2ccccc12 | colocalisation with ER-Tracker | – | – | – | Pearson's coefficient | 0.652
CC(=O)N[C@@H](CC(C)C)C(=O)N[C@H](C(=O)N[C@@H](Cc1ccccc1)C(=O)N[C@H]1CSCc2ccc(cn2)-c2ccc(nc2)CSC[C@@H](C(=O)N[C@@H](CO)C(N)=O)NC(=O)[C@H](CC(C)C)NC(=O)[C@H](CCCNC(=N)N)NC(=O)[C@H](C)NC(=O)[C@H](Cc2c[nH]c3ccccc23)NC(=O)[C@H](Cc2ccc(O)cc2)NC(=O)[C@H](CCCNC(=N)N)NC1=O)[C@@H](C)O | CellTiter-Glo | – | 10 µM | – | viability decrease | 50%
O=C(CCC(=O)OCCNC(=O)[C@@H](Cc1ccccc1)NC(=O)[C@@H](Cc1ccccc1)NC(=O)CCNc1ccc([N+](=O)[O-])c2nonc12)NCCS(=O)(=O)O | – | – | 50 µM, 24 h | – | intracellular over medium concentration | ~3 fold
CN1/C(=C/C=C/c2cc(-c3ccccc3)cc(-c3ccccc3)[o+]2)C(C)(C)c2ccccc21 | cell growth or viability | – | 72 h | – | CC50 | 0.56 µg/mL
CC(=O)[O-].Nc1ccc(C([O-])=NN=Cc2ccc(OCC(=O)Nc3ccc(Cl)cc3)cc2)cc1.[Ni+2] | cytotoxicity, MTT | – | 24 h | – | IC50 | 24.2 ± 2.2 µM
N[C@H]1C[C@@H]1c1ccc(-c2cccc(O)c2)cc1 | MTT | – | 50 µM, 12 h | – | cytotoxicity | not toxic
O=C(CCC(=O)NCCS(=O)(=O)O)NCCNC(=O)[C@@H](Cc1ccccc1)NC(=O)[C@@H](Cc1ccccc1)NC(=O)CCNc1ccc([N+](=O)[O-])c2nonc12 | – | – | 200 µM, 24 h | – | decrease per PBS wash | ~25%
COc1ccc(Cn2c(=O)n(O)c(=O)c3ccccc32)cc1 | cytotoxicity, colony formation | DMEM, foetal calf serum | – | – | EC50 | 6 µM
COC(=O)c1cc(O)c2ccccc2c1O | – | – | 20 µM | – | cytotoxicity | not toxic
CC[C@H](C)[C@H](NC(=O)[C@H](Cc1c[nH]c2ccccc12)NC(=O)[C@H](CCCNC(=O)c1ccc2c(c1)C(=O)OC21c2ccc(O)cc2Oc2cc(O)ccc21)NC(=O)CNC(=O)[C@H]1CCCN1C(=O)[C@@H](NC(=O)[C@H](CCCNC(=N)N)NC(=O)[C@@H](NC(=O)[C@H](Cc1c[nH]c2ccccc12)NC(=O)[C@H](CCCNC(=N)N)NC(C)=O)C(C)C)C(C)C)C(=O)N[C@@H](CCCNC(=N)N)C(=O)N[C@@H](CCC(N)=O)C(=O)N[C@@H](CC(C)C)C(=O)N[C@@H](CCCNC(=N)N)C(=O)NCC(=O)NCC(N)=O | peptide uptake, fluorescence microscopy | – | range over 80 to 160 µM, 90 min, 37 °C | – | Hill coefficient | 6.26

Repeated from above:
Structure (SMILES) | test | system | conditions | scale | endpoint | value
COc1ccc(Cn2c(=O)n(O)c(=O)c3ccccc32)cc1 | cytotoxicity, colony formation | DMEM, foetal calf serum | – | – | EC50 | 6 µM
COC(=O)c1cc(O)c2ccccc2c1O | – | – | 20 µM | – | cytotoxicity | not toxic
